Measured values gathered from unrelated publications.
Parts stem from different laboratories: compare values within a part only.

Sample 1
Target: Fragile X messenger ribonucleoprotein 1, C-terminal low-complexity region (Fmr1, Mus musculus, UniProt P35922)
Method: RNA Bind-n-Seq
Form: RNA
Matrix: in vitro
Tested at: 200 nM
Setting: whole 134-nt RNA, ends assumed
With: 150 mM LiCl
Baseline: input library
Reading: higher = stronger binding
All molecules: 7-deaza-guanosine replaces G
Oligonucleotide	log2 enrichment
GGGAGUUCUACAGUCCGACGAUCUGGCCCUGGUGGCAUGCGGUGAGGAAGAGGUGGCCUCAUGGAUCGUGGUGGUCCCGGUGGAAUGUUCAGAGGUGGCCGUGGUGGAGACAGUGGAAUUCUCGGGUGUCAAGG	-0.37
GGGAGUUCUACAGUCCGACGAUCCAACGUUGAAAUGGAUUGGGUGUUGAAGCAUACUGGUCCAAAUAGUCCUGACACGGCCAAUGAUGGCUUUGUACGGCUUAGAGGACUUCCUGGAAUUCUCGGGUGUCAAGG	-3.14
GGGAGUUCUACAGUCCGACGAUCUAACUUUAGAGGAGGAUCUGAUGGAUAUGGCAGUGGACGUGGAUUUGGGGAUGGCUAUAAGGGGUAUGGAGGAGGACCUGGAGGUGGCAAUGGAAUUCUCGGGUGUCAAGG	0.484
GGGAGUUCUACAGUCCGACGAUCCCUGUGCUACACAUCGUAUGUACCGAAUCGGGUUUUUUUGGGAAAAAGGGAAAAAAAGGGAAAGUAUUAUGUUACGCCGUUCGGAUCUGCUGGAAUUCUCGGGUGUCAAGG	-2.28
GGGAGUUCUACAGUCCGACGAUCAGGACGUGCAGAACUUCCUCUCUGACUGCACGAUUCAUGAUGGGGCCGCAGGUGUCCAUUUCAUCUACACUAGAGAGGGCAGGCAGAGUGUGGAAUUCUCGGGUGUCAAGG	0.122
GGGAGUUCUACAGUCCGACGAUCUGGGCAAUGUGUCGGCUGCAUGCACGAGCCAGGAACUGCGCAGCCUCUUCGAGCGCCGCGGACGCGUCAUCGAGUGUGACGUGGUGAAAGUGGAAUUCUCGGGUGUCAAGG	-1.06
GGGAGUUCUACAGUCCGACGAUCCCUCAAGUCCUGUGCUACACAUCGUAUGUACCGAAUCGGCGGGGCGGGCGGGGAAAGUAUUAUGUUACGCCGUUCGGAUCUGCACUUCCAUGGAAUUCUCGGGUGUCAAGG	-0.7
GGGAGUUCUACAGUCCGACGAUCCUCAAGUCCUGUGCUACACAUCGUAUGUACCGAAUCGGUGGAAAAAGGAAAGGAAAGUAUUAUGUUACGCCGUUCGGAUCUGCACUUCCAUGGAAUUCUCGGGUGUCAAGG	0.238
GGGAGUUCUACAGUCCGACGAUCUCCUGUGCUACACAUCGUAUGUACCGAAUCAAAUUUUUAAACCCCCCCAAACCCCCAAAAAAGUAUUAUGUUACGCCGUUCGGAUCUGCAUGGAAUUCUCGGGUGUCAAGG	1.85
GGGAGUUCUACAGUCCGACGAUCGUCCUGUGCUACACAUCGUAUGUACCGAAUCAAACCCCCAAACCCCCAAACCCCCAAAAAAGUAUUAUGUUACGCCGUUCGGAUCUGCACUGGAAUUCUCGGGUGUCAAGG	-0.254
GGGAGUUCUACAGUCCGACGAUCUGGCCCUGGUGGCAUGCGGGGAGGAAGAGGUGGCCUCAUGGAUCGUGGUGGUCCCGGUGGAAUGCUCAGAGGUGGCCGUGGUGGAGACAGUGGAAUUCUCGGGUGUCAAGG	-0.789

Sample 2
Target: Interferon regulatory factor 7, full length, phosphomimetic (IRF7, Homo sapiens, UniProt Q92985, residues 1-503, S471D/S472D/S475D/S476D/S477D/S483D/S484D/S487D)
Method: protein-binding microarray
Form: double-stranded DNA, one strand shown
Matrix: in vitro
Tested at: 2200 nM top
Setting: 60-bp whole probe
With: salmon DNA 0.4 mg/ml
Baseline: random background probes
Reading: higher = stronger binding
All sequences stand within: GCCTAGCAC … GTCTTGATTCGCTTGACGCTGCTG
Residues (chain): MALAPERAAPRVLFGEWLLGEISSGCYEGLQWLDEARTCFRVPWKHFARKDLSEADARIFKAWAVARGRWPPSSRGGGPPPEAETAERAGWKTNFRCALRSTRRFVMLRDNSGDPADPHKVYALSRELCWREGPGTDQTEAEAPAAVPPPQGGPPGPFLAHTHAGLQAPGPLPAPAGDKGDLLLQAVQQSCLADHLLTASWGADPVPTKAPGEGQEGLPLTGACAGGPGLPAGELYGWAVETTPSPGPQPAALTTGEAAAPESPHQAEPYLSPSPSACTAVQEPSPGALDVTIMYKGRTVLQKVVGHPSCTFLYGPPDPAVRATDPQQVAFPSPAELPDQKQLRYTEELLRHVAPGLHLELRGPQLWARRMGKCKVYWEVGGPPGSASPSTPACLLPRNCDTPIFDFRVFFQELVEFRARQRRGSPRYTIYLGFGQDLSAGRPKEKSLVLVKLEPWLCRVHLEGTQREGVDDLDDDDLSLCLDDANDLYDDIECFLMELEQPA
Oligonucleotide	fitted relative affinity
TCACCTCTGTAAGTCAGACTGTGCTAG	0.917 z-score
CTAGGACTGCTTATCCTTTAGTGCTAG	0.333 z-score
GACGGTTTCCTTCTCCAGACGTGCTAG	2.89 z-score
TTAGGTATCCTTCTCTTTTAGTGCTAG	1.18 z-score
TTAGGTATCGGTCTCGGTTAGTGCTAG	1.04 z-score
TCAATCTTAGATATTAAACTGTGCTAG	-0.217 z-score
GACGGTTTCTACTTTCGGGACGTGCTA	7.71 z-score
GGTGTAAGGAACTGAAGTGAGTGCTAG	-0.772 z-score
GACGGACTGGATTATCGGGACGTGCTA	-0.684 z-score
TTTTACATTTTAAGAAATGTGTGCTAG	0.878 z-score
TTAGGTTTCGGTTTAGGTTAGTGCTAG	13.3 z-score
GACGGACTGGGACTGGCGACGTGCTAG	-0.894 z-score
TTAGGTATGGGTCTCGGTTAGTGCTAG	0.527 z-score
GACGGTTTCCTACTACTGACGTGCTAG	2.2 z-score
GACGATTTCGGGACTGGAGAAGTGCTA	1.14 z-score
TTAGATATCTGTATCGATTAGTGCTAG	0.242 z-score
TTAAATTTTAATAACACAGAGTGCTAG	-1.06 z-score
TCAAATTTTCATTTTCCACTGTGCTAG	4.3 z-score
TTAGGACTGTACTATCGGTTAGTGCTA	0.257 z-score
GACGATTTAGGGTATCGAGACGTGCTA	0.131 z-score
ATCTTTTTCCCTATTATATAGTGCTAG	2.33 z-score
TAAGGTCTCGGTATCGGTTAGTGCTAG	0.816 z-score
GTGTTCTGGGCAGCAGAGGGGTGCTAG	-0.0942 z-score
TCAACTCTAATCTCACTCACTGTGCTA	0.383 z-score
CTAGAACTGAGTCTCGATTAGTGCTAG	-0.165 z-score

Sample 3
Target: RNA binding protein fox-1 homolog 2, RRM domain, GST-SBP tag (RBFOX2, Homo sapiens, UniProt O43251-10, residues 100-194)
Method: RNA Bind-n-Seq
Form: RNA
Matrix: in vitro
Tested at: 365 nM
Setting: natural RNA segment, single round, ends assumed
Baseline: no-protein control
Reading: higher = stronger binding
Target sequence (chain): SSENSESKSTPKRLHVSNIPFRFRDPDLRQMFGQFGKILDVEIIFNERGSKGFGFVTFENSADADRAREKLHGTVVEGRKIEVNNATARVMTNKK
Oligonucleotide	RBNS enrichment (R)
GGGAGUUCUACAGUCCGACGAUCUAACUCAGGGAGGGAGGGGAGGUCCUUAGCUGGGGGAAAGGAGGCGAGGGUCCUUACUGCUGUGUACCAACACUGACCCCGCCCUCUCUGAGCUGUACUCUCUGCCCGUGUGGAAUUCUCGGGUGCCAA	0.766
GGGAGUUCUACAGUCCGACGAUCAAUCUGCUUGGUAAAUGUCUCCUGGGAAAGGCAGAACCCAUAACUUAAAGACACGCACAGUCCCUUCCAUUGUCCCACAGGAGUUCCUCUGGCUGAGUAUGCCAUCCAGAUGGAAUUCUCGGGUGCCAA	0.576
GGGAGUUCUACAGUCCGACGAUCCCCCUGGGCCACUUCUGCAGCUCCCACCAGAAUGGAUGACCAGAUUCUGUUGGGUUUGGGCACAUAGGGCCAAAGGCAGAGGAGGGUGGCACUCUCAUGUUGGAACUUCUUGGAAUUCUCGGGUGCCAA	1.68
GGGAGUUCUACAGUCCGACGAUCCUUUCUCAACAAAUUAGUCCAUCUCAUUGAUGUACCACAGAAAUCCAAAGCUUUGCUGUCAUCACAUAAAUGAAUUAAAUCACAUGUGAAAGGGAACACACCCAAUUUUAUGGAAUUCUCGGGUGCCAA	0.25
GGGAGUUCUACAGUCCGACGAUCUUAUACACUUGGUCUUUCCAUGUAUAUACCGGCCUCUGUUUUUUUUUUUUCCAAUCUCUGGCUCUUCUGUCAUCUUCCAAGCAGCGUCUGAGAGCUCUGCACGGGCACAGUGGAAUUCUCGGGUGCCAA	0.659
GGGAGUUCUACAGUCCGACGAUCUGAGCCAUCGAUAAGCCCCUAAAAUGCGGAUUAUAAAAUUGCCAAAUAUCCUUUCUCAUGGAAGUGCAUACCUGCGUGUGGAGAAGCUGAGGAGUGAAAACCAUGCAAGUUGGAAUUCUCGGGUGCCAA	0.402
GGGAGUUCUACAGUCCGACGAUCUGAAAUGAAACACUCACUAUAUAAACCACACUUGCCUCACAGAGAUCCUCCUGCCUCUGUCUCCUGAAUGUUGGGACAAAAGUAUGUGCCACCCCUACCCAGCGAGAACAUGGAAUUCUCGGGUGCCAA	0.931
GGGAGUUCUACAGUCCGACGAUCACACUCGUCUUGCCUAGGAAGUGCAAUCUCCUUGUGACUGGAGCACACUGGCAGCCUUCAGGUGUCAUAAUCAUACAUCCCAGAGAAGAGCAGUCACCUGCUGUCACUAGUGGAAUUCUCGGGUGCCAA	0.398
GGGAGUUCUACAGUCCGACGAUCUGAUUUGAUAGUCUUGAUCUAAAAAUAAUGUUUUGUUAAUAUGUCACUAAAUUUCUAAAAACUGUAUUCAUGGGCUGCUGAGAUGGCUCACAAGAAAAGCACUUGCUGCCUGGAAUUCUCGGGUGCCAA	0.618
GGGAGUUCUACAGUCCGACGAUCUUCCCGUUCUCCUGUGUCUACUAACAAGGACAUGGGGGUGGGCGGUGACCUCCGCAUCCCUCAGAGCUCAGAGGGUCCUCGCUGCCACCGGUCCCCCCCUAGCCCGUCAUUGGAAUUCUCGGGUGCCAA	0.319
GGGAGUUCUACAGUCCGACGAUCUGAGCCAGAACCACAAGAGCCAGUUCCUCAAGAGGCUUUUGUCCCCAAGCCUGAGGACAGAGCCGCAUCAAGUCAUCAUCAGCAAGUCAGCCAGCCUGUUUGGUCUGCUUUGGAAUUCUCGGGUGCCAA	0.443
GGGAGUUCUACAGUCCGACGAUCUCACAAGUUCCAGGUCAGCCUGUGCUGUGUAGCACAGUCCAGCUCCCUACACCUCCUCACACACACAGUGGCUGCUGGGUGACCGUUCCCUUUUUUCUUUGGAACUUGGCUGGAAUUCUCGGGUGCCAA	0.455

Sample 4
Target: Prothrombin, mature alpha-thrombin (F2, Homo sapiens, UniProt P00734)
Method: aptamer microarray, sandwich
Form: DNA with 2'F-ANA
Matrix: in vitro
Tested at: 200 nM
Setting: whole 15-mer aptamer, many near background
With: Cy3 exosite-II aptamer, 400 nM
Reading: higher = stronger binding
Oligonucleotide: GGTTGGTGTGGTTGG
Modification	mean fluorescence intensity [a.u.]
2'F-ANA at 1 4 5 6 7 8 10 11 13	54.1
2'F-ANA at 2 4 6 8 9 10 11 13	64.7
2'F-ANA at 1 2 5 6 7 8 9 10 12 15	81.9
2'F-ANA at 2 3 4 5 7 8 9 12 13 14 15	77.7
2'F-ANA at 1 2 3 9 12 14	82.9
2'F-ANA at 4 6 8 13 15	187
2'F-ANA at 1 4 5 6 10 12 14 15	45.7
2'F-ANA at 2 3 5 6 7 9 10 11 12	71.1
2'F-ANA at 1 4 6 8 9 10 13 15	94
2'F-ANA at 1 5 7 8 9 13 14 15	45.9
2'F-ANA at 4 5 7 9 10 11 12 13 14 15	55.2
2'F-ANA at 3 6 7 9 10 11 14 15	357
2'F-ANA at 1 6 9 13 15	122
2'F-ANA at 2 5 6 7 8 9 13 14 15	46.1
2'F-ANA at 2 4 5 6 11 12 13 14	47.1
2'F-ANA at 1 5 6 9 10 12 13	60.1
2'F-ANA at 1 2 5 6 7 8 11 12 13 15	98.5
2'F-ANA at 1 2 5 7 9 10 11 13 15	46.8
2'F-ANA at 2 4 7 8 9 11 12	562

For quick reference, copied from above (sample 2):
Oligonucleotide	fitted relative affinity
TTAGATATCTGTATCGATTAGTGCTAG	0.242 z-score
TTAAATTTTAATAACACAGAGTGCTAG	-1.06 z-score
TCAAATTTTCATTTTCCACTGTGCTAG	4.3 z-score
TTAGGACTGTACTATCGGTTAGTGCTA	0.257 z-score
GACGATTTAGGGTATCGAGACGTGCTA	0.131 z-score
